{"data": "Published values of several laboratories", "Ubiquitin carboxyl-terminal hydrolase 39 ZnF-UBD domain": "Ubiquitin carboxyl-terminal hydrolase 39, ZnF-UBD domain (Homo sapiens, UniProt Q53GS9)", "ZBTB11/CRBN": "ZBTB11/CRBN (Homo sapiens, UniProt O95625+Q96SW2)", "note": "Lines come from different studies, so protocols differ. Values joined by “and” are separate records of one study, mostly repeats; a detail may differ. ± gives the spread as reported.", "UniProt Q64663, sequence (whole entry, unmodified, looked up)": "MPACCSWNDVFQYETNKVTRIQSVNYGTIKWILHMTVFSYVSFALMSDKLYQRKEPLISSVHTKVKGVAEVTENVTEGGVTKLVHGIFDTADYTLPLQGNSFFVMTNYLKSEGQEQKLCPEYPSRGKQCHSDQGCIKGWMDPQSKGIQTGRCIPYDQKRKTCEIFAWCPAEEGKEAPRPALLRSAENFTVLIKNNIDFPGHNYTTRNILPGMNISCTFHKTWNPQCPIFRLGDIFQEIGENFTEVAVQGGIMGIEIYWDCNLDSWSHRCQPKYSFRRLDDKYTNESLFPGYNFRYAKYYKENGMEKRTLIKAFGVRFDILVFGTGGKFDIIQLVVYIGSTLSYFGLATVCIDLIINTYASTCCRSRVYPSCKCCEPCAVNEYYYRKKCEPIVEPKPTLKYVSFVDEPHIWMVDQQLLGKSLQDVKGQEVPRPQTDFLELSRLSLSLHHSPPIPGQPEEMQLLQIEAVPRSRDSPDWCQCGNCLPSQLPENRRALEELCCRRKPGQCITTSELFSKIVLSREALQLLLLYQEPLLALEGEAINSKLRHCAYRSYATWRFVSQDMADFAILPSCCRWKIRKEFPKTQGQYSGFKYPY", "UniProt Q16774, sequence (whole entry, unmodified, looked up)": "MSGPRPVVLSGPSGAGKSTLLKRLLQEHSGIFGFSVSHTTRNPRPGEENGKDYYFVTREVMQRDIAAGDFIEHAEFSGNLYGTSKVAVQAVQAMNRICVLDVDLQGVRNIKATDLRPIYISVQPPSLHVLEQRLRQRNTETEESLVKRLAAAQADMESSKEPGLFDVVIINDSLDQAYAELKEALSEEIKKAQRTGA", "UniProt O00482, sequence (whole entry, looked up)": "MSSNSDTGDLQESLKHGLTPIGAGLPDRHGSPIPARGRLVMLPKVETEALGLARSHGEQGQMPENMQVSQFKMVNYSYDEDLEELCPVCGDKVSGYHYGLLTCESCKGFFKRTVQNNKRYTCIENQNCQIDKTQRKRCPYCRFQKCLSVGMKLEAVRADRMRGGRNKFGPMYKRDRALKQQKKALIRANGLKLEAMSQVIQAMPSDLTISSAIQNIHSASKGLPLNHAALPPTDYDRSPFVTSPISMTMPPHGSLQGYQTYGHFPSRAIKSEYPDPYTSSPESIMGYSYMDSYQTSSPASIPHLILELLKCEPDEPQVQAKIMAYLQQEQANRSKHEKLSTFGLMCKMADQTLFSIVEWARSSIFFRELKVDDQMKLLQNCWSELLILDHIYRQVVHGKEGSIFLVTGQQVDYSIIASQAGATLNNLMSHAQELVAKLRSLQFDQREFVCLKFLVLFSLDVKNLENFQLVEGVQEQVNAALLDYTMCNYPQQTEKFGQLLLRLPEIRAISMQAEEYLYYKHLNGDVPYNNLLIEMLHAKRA", "UniProt Q96SW2, sequence (whole entry, looked up)": "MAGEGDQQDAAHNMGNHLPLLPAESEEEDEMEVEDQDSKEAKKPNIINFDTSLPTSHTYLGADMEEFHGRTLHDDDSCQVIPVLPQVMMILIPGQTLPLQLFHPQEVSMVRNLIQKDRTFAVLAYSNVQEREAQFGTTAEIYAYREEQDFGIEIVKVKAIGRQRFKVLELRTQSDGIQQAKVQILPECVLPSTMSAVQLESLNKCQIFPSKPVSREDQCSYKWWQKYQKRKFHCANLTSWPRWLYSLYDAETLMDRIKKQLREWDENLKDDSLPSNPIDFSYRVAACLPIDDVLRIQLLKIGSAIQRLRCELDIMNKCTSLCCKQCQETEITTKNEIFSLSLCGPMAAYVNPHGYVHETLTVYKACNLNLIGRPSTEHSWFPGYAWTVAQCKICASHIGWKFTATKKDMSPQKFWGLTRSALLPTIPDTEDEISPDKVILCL", "UniProt Q53GS9, sequence (whole entry, looked up)": "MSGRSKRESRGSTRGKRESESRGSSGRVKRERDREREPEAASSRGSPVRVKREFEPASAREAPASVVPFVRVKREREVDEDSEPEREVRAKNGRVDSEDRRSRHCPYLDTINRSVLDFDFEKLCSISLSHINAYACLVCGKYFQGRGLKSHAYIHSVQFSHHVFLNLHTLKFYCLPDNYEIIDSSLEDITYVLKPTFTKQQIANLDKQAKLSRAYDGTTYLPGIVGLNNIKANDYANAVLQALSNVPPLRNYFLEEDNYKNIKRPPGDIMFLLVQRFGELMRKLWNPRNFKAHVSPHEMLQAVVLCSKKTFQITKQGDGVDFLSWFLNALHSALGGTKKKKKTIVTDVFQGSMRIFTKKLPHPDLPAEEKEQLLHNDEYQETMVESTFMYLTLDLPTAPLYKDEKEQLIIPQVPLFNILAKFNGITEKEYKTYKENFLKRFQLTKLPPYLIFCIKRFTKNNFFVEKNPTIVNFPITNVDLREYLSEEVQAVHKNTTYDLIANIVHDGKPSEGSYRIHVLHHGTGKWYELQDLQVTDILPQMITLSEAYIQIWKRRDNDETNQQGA", "UniProt P10721, sequence (whole entry, unmodified, looked up)": "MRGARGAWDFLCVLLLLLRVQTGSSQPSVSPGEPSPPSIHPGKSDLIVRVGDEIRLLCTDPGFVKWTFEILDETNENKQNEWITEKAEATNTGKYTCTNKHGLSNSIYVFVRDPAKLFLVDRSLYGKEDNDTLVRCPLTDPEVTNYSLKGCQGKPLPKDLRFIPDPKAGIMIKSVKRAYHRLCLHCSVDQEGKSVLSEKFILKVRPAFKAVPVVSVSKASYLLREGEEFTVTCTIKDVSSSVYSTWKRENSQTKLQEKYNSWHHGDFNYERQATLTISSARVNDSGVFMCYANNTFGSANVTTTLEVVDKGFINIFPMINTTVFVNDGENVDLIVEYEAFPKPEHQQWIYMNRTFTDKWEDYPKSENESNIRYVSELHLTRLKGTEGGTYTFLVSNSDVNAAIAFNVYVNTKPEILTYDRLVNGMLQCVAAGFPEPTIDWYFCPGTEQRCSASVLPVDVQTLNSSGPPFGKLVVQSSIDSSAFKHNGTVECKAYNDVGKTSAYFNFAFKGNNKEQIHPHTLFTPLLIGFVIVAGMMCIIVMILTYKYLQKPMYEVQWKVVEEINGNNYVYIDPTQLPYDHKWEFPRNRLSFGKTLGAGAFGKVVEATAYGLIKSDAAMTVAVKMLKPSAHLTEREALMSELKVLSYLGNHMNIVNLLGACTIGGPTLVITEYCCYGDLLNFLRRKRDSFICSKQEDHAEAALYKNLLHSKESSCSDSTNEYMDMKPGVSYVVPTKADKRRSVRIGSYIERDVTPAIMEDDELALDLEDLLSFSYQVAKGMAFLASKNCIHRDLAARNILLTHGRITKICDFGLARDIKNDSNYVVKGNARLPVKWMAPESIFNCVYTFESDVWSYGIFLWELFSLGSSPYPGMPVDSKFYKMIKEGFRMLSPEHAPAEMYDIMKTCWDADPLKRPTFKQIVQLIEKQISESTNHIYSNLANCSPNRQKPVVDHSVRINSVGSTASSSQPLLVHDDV", "UniProt P51575, sequence (whole entry, unmodified, looked up)": "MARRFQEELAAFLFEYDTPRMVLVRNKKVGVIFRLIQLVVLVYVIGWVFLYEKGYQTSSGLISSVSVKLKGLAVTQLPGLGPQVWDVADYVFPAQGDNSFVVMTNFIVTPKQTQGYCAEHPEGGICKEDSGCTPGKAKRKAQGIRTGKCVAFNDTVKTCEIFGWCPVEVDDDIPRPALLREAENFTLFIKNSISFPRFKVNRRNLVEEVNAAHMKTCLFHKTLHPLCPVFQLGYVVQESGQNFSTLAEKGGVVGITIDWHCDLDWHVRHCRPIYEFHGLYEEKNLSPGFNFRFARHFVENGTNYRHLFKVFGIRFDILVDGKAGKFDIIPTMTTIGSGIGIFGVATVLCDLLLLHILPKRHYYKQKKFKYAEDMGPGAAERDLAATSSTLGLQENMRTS", "UniProt O95625, sequence (whole entry, looked up)": "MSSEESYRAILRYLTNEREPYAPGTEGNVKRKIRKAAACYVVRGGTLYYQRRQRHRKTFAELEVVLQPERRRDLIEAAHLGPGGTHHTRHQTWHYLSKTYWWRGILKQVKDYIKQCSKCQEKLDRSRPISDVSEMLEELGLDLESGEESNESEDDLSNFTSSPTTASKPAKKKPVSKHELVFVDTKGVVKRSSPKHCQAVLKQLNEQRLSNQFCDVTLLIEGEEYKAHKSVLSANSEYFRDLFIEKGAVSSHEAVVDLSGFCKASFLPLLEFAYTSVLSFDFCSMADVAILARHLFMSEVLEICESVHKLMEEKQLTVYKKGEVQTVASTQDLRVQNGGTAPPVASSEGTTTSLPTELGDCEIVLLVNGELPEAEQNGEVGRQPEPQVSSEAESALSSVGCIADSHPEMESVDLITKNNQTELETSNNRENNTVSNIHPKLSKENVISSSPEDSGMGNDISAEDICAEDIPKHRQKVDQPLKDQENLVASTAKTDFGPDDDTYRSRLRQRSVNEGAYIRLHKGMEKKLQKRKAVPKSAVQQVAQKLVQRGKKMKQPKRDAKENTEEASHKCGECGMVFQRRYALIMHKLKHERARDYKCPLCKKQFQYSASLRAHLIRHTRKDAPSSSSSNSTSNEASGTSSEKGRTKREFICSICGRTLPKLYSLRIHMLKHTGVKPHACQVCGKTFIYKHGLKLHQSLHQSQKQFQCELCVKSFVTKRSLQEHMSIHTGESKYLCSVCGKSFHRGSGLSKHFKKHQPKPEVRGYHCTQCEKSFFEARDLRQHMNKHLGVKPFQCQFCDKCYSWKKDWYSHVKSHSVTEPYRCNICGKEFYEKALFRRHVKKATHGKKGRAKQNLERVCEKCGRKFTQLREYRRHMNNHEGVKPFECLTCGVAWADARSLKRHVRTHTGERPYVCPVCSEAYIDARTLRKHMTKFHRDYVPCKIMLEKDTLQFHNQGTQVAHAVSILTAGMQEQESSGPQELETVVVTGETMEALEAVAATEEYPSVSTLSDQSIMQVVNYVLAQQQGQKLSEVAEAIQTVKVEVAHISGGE", "UniProt P02763, sequence (whole entry, looked up)": "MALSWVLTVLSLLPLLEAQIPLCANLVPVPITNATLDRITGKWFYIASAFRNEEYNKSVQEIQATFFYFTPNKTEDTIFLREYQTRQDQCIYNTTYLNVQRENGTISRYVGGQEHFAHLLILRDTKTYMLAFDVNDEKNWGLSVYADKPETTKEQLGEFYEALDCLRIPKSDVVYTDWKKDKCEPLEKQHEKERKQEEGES"}
{"SMILES": "Nc1nc2c(ncn2[C@@H]2O[C@H](COP(=O)(O)OP(=O)(O)OP(=O)(O)O)[C@@H](O)[C@H]2O)c(=O)[nH]1", "test": "binding, equilibrium dialysis LC-MS", "setting": "5 µM, thermostabilized A2AR-BRIL construct", "scale": "baseline: no-protein control, direction not given", "measurement": "z-scored log2 fold change", "result": -5.34}
{"SMILES": "CC(NC(=O)CCCc1ccc2ccc3cccc4ccc1c2c34)C(=O)NO (stereo not drawn)", "target or system": "Histone deacetylase 8 (HDAC8, Homo sapiens, UniProt Q9BY41)", "test": "ITC", "system": "Tris-HCl buffer", "setting": "298 K", "measurement": "TΔS°", "result": "5.3 kcal/mol"}
{"SMILES": "Cc1nn(CCc2ccccc2)c2ncc(C(=O)NCc3ccccn3)c(Cl)c12", "target or system": "Prolyl endopeptidase (PREP, Homo sapiens, UniProt P48147)", "test": "intact protein MS", "setting": "50 µM, 4 h, 37 °C", "measurement": "protein adduct formation", "result": "65%"}
{"SMILES": "O=C(O)CCn1ccccc1=O", "target or system": "Ubiquitin carboxyl-terminal hydrolase 39 ZnF-UBD domain", "measurement": "Kd", "result": "> 1000 µM"}
{"SMILES": "CCCCc1nc2c(N)nc3ccccc3c2n1Cc1ccc(N)cc1", "target or system": "Toll-like receptor 7 (TLR7, Homo sapiens, UniProt Q9NYK1)", "test": "NF-κB reporter gene, agonist", "system": "HEK-Blue HEK293 overexpressing TLR7", "measurement": "lowest activating concentration", "result": "16 nM"}
{"SMILES": "Nc1ncnc2c1ncn2[C@@H]1O[C@H](COP(=O)(O)OP(=O)(O)OP(=O)(O)O)[C@@H](O)[C@H]1O", "target or system": "P2X purinoceptor 7 (P2rx7, Rattus norvegicus, UniProt Q64663, I214G)", "test": "ion current, agonist, two-electrode voltage clamp", "system": "Xenopus laevis oocytes", "setting": "100 µM", "scale": "baseline: highest concentration response", "measurement": "normalized current", "result": "0.311 and 0.293 and 0.271"}
{"SMILES": "CC(=O)Nc1ccc(O)cc1", "target or system": "Bromodomain-containing protein 4 (BRD4, Homo sapiens, UniProt O60885)", "test": "19F NMR, refers to: tyrosine 119", "setting": "746 µM", "scale": "baseline: free protein", "measurement": "chemical shift change", "result": "0.121 ppm"}
{"SMILES": "CCOc1ccc(NC(=O)O[C@H](Cn2nc(C(C)C)cc2C(C)C)C(C)C)cc1", "target or system": "Neuronal acetylcholine receptor; alpha4/beta2, (α4)2(β2)3 stoichiometry (Homo sapiens, UniProt P17787+P43681)", "test": "ACh-evoked current, two-electrode voltage clamp", "setting": "1 µM, high-sensitivity stoichiometry, with: ACh 10 µM", "scale": "baseline: ACh alone", "measurement": "current", "result": "94 ± 6%"}
{"SMILES": "Nc1ncnc2c1ncn2[C@@H]1O[C@H](COP(=O)(O)OP(=O)(O)OP(=O)(O)O)[C@@H](O)[C@H]1O", "target or system": "Creatine kinase U-type, mitochondrial (CKMT1A, Homo sapiens, UniProt P12532)", "test": "substrate, ADP-Glo luminescence", "setting": "pH 8.5, forward reaction, WT mutant, with: second substrate in excess", "measurement": "Km", "result": "100 ± 30 µM"}
{"SMILES": "O=[N+]([O-])c1cc(C(F)(F)F)ccc1NCc1ccco1", "target or system": "Endothelial PAS domain-containing protein 1, PAS-B domain (EPAS1, Homo sapiens, UniProt Q99814, N288Q)", "test": "binding, ITC, reverse mode", "measurement": "TΔS", "result": "-0.68 ± 0.03 kcal/mol"}
{"SMILES": "CC(C)(NCCCc1ccc(C(F)(F)F)c(Cl)c1)c1cccc(NC2=CC(=O)N(C3CCC(=O)NC3=O)C2=O)c1 (stereo not drawn)", "target or system": "ZBTB11/CRBN", "test": "protein degradation, degrader, HiBiT luminescence", "system": "MOLT-4", "measurement": "Dmax", "result": "32%"}
{"SMILES": "O=c1nc(SCc2cc(F)cc(C(F)(F)F)c2)nc(SCc2csc3ccc(Cl)cc23)[nH]1", "target or system": "DNA topoisomerase 2-alpha (TOP2A, Homo sapiens, UniProt P11388)", "test": "DNA cleavage", "setting": "7.8 µM", "measurement": "mean linear DNA", "result": "0%"}
{"SMILES": "C=CC(=O)N1CCC(COCC(=O)N2CCN(c3nc(-c4cnc(N)nc4C(F)F)nc(N4CCOC[C@@H]4C)n3)CC2)CC1", "target or system": "Mast/stem cell growth factor receptor Kit, autoinhibited (KIT, Homo sapiens, UniProt P10721)", "test": "KINOMEscan", "setting": "1 µM", "measurement": "remaining binding", "result": "63%"}
{"SMILES": "CCCCCCCCC(=O)c1cc(O)c(O)c(O)c1", "target or system": "Nuclear receptor subfamily 5 group A member 2 (NR5A2, Homo sapiens, UniProt O00482)", "test": "reporter gene, Gal4 hybrid reporter", "setting": "10 µM", "scale": "baseline: vehicle", "measurement": "activation", "result": "1.14 fold"}
{"SMILES": "N#Cc1ccc2c(CN3CCOCC3)cc(-c3ccc([C@@H]4CCC(=O)N4)cc3)nc2c1", "target or system": "Advanced glycosylation end product-specific receptor, with DIAPH1 (AGER, Homo sapiens, UniProt Q15109)", "test": "acceptor photobleaching", "system": "HEK-293T expressing RAGE-eCFP", "setting": "5.0 µM, 60 min", "measurement": "FRET efficiency", "result": "3.5 ± 0.2%"}
{"SMILES": "CCC(C)(NCCc1cc(C(F)(F)F)cc(C(F)(F)F)c1)c1cccc(NC2=CC(=O)N(C3CCC(=O)NC3=O)C2=O)c1 (stereo not drawn)", "target or system": "ZBTB11/CRBN", "test": "protein degradation, degrader, HiBiT luminescence", "system": "MOLT-4", "measurement": "Dmax", "result": "62%"}
{"SMILES": "[H]/N=C(/N)NCC(=O)O", "target or system": "Sodium- and chloride-dependent taurine transporter (SLC6A6, Homo sapiens, UniProt P31641, L306A)", "test": "binding, microscale thermophoresis", "setting": "62.5 µM, room temperature, with: 50 nM labelled protein", "scale": "higher = more binding", "measurement": "normalised MST signal", "result": 0.0142}
{"SMILES": "Cc1[nH]c(/C=C2\\C(=O)Nc3ccc(C(=O)N[C@H](C)c4ccc(F)cc4)cc32)c(C)c1NC(=O)C(=O)c1ccccc1", "target or system": "G protein-coupled receptor kinase 5 (GRK5, Homo sapiens, UniProt P34947)", "test": "tubulin phosphorylation", "scale": "baseline: GRK2 IC50 over GRK5 IC50", "measurement": "selectivity ratio", "result": "> 900 fold"}
{"SMILES": "N#Cc1ccn2c(-c3ccncc3)c(-c3ccc(F)cc3)nc2c1", "target or system": "Negative regulator of the PHO system (PHO85, Candida albicans, UniProt Q9HGY5)", "test": "kinase binding, competitor, MIB/MS competition, refers to: PHO85", "system": "Candida albicans cell lysate", "setting": "100 nM", "scale": "baseline: DMSO", "measurement": "log2 fold change", "result": 0.206}
{"SMILES": "CC(C)OCCn1c(=S)[nH]c(=O)c2[nH]ccc21", "target or system": "Myeloperoxidase (MPO, Homo sapiens, UniProt P05164)", "test": "H2O2 consumption, inhibitor, H2O2 electrode", "setting": "0.226 µM, 0.1 s", "measurement": "H2O2 concentration", "result": "-1.24 µM"}
{"SMILES": "Nc1nc2c(ncn2[C@@H]2O[C@H](COP(=O)(O)O)[C@@H](O)[C@H]2O)c(=O)[nH]1", "target or system": "GUK1 (Homo sapiens, UniProt Q16774, S37A)", "test": "enzyme activity, NADH-coupled", "setting": "31.25 µM", "measurement": "reaction rate", "result": "-1.4 s⁻¹ and 4.22 s⁻¹ and -0.268 s⁻¹"}
{"SMILES": "[2H]c1cc(C)c(NC(=O)c2cnc(Nc3cc(N4CCCCC4)nc(C)n3)s2)c(Cl)c1", "target or system": "Mast/stem cell growth factor receptor Kit (KIT, Homo sapiens, UniProt P10721, V654A)", "setting": "0.01 µM", "measurement": "inhibition", "result": "< 30%"}
{"SMILES": "O=C(O)CCc1nc2ccccc2c2nc(Cc3ccccc3)nn12", "target or system": "Ubiquitin carboxyl-terminal hydrolase 39 ZnF-UBD domain", "measurement": "Kd", "result": "> 1000 µM"}
{"SMILES": "CCS(=O)(=O)N1CC(CC#N)(n2cc(-c3ncnc4[nH]ccc34)cn2)C1", "target or system": "Alpha-1-acid glycoprotein 1 (ORM1, Homo sapiens, UniProt P02763)", "test": "modified Stern-Volmer", "setting": "298 K", "measurement": "fraction of accessible fluorescence", "result": 0.62}
{"SMILES": "CC(=O)N[C@H](C(=O)N1C[C@H](O)C[C@H]1C(=O)NCc1ccc(-c2scnc2C)cc1)C(C)(C)SCCCCCCNC(=O)C[C@@H]1N=C(c2ccc(Cl)cc2)c2c(sc(C)c2C)-n2c(C)nnc21", "target or system": "Bromodomain-containing protein 3, BD2 (BRD3, Homo sapiens, UniProt Q15059)", "test": "ITC", "setting": "concentration not given, 25 °C, compound in cell, protein in syringe", "measurement": "binding stoichiometry", "result": "0.701 ± 0.006"}
{"SMILES": "CC[C@@H]1[C@H](F)C(=O)N[C@@H]1COc1nccc2cc(C(N)=O)c(OC)cc12", "target or system": "Interleukin-1 receptor-associated kinase 3 (IRAK3, Homo sapiens, UniProt Q9Y616)", "test": "ATP-site probe binding, ActivX profiling", "system": "THP-1 cell lysate", "setting": "0.2 mM, Lys1 site", "measurement": "inhibition", "result": "72.5%"}
{"SMILES": "NC(N)=NCCC[C@H](N)C(=O)Nc1ccc2ccccc2c1", "target or system": "rat neuron-specific aminopeptidase", "test": "substrate", "measurement": "Km", "result": "5 µM"}
{"SMILES": "O=C(COP(=O)(O)O)[C@@H](O)[C@H](O)[C@H](O)COP(=O)(O)O", "target or system": "Retrotransposon-derived protein PEG10 (PEG10, Homo sapiens, UniProt Q86TG7)", "test": "thermal proteome profiling, refers to: PEG10", "system": "HepG2 cell lysate", "setting": "concentration not given, 57 over 37 °C, mean", "scale": "baseline: compound over control", "measurement": "thermal stability ratio", "result": 0.671}
{"SMILES": "Nc1ncnc2c1ncn2[C@@H]1O[C@H](COP(=O)(O)CP(=O)(O)OP(=O)(O)O)[C@@H](O)[C@H]1O", "target or system": "P2X purinoceptor 1 (P2RX1, Homo sapiens, UniProt P51575, R139P)", "test": "saturation binding", "system": "HEK293", "setting": "103 nM", "measurement": "specific binding", "result": "1860 CCPM and 1890 CCPM"}
{"SMILES": "CN1CCN(c2cc(-c3ccncc3)c(-c3ccc4ccccc4c3)nn2)CC1", "target or system": "Prostaglandin E2 receptor EP4 subtype (PTGER4, Homo sapiens, UniProt P35408)", "test": "agonist, FLIPR", "setting": "12.5 µM", "measurement": "activation", "result": "-2.8%"}
{"SMILES": "N=c1n(CCN2CCCCC2)c2ccccc2n1CC(O)c1cccc(Br)c1 (stereo not drawn)", "target or system": "CatSper channel complex (Homo sapiens, UniProt Q7RTX7+Q86XQ3+Q8NEC5+Q96P56)", "test": "ion current, whole-cell patch clamp", "system": "human sperm", "setting": "10 µM, at +80 mV", "measurement": "outward current density", "result": "35 ± 4 pA/pF"}
{"SMILES": "Cc1cn([C@H]2C[C@H](O)[C@@H](CO)O2)c(=O)[nH]c1=O", "target or system": "deoxyribonucleoside phosphotransferase I (Trichomonas vaginalis)", "test": "substrate", "setting": "with: p-nitrophenylphosphate 100 mM", "measurement": "Km", "result": "3570 ± 420 µM"}
{"SMILES": "Cc1cc(=O)oc2cc(OCCCCSC#N)ccc12", "target or system": "Carbonic anhydrase 12 (CA12, Homo sapiens, UniProt O43570)", "test": "stopped-flow CO2 hydration", "scale": "baseline: Ki CA I over Ki CA XII", "measurement": "selectivity ratio", "result": "> 1840"}
{"SMILES": "COc1cc(Nc2ncc3c(n2)-c2ccc(Cl)cc2C(c2c(F)cccc2OC)=NC3)ccc1C(=O)O", "target or system": "ERBB2", "test": "kinase activity", "setting": "1 µM", "measurement": "remaining activity", "result": "65%"}
{"SMILES": "CN1CCC[C@H]1c1cccnc1", "target or system": "Chrnd/Chrna1/Chrne (Mus musculus, UniProt P02716+P04756+P20782, G173E)", "measurement": "koff", "result": "1230 s⁻¹"}
{"SMILES": "CCC(O)C(=O)O (stereo not drawn)", "test": "binding, equilibrium dialysis LC-MS", "setting": "5 µM, thermostabilized A2AR-BRIL construct", "scale": "baseline: no-protein control, direction not given", "measurement": "z-scored log2 fold change", "result": 0.783}
{"note": "Excerpt of the above:"}
{"SMILES": "CCC(O)C(=O)O (stereo not drawn)", "test": "binding, equilibrium dialysis LC-MS", "setting": "5 µM, thermostabilized A2AR-BRIL construct", "scale": "baseline: no-protein control, direction not given", "measurement": "z-scored log2 fold change", "result": 0.783}
{"SMILES": "CCCCc1nc2c(N)nc3ccccc3c2n1Cc1ccc(N)cc1", "target or system": "Toll-like receptor 7 (TLR7, Homo sapiens, UniProt Q9NYK1)", "test": "NF-κB reporter gene, agonist", "system": "HEK-Blue HEK293 overexpressing TLR7", "measurement": "lowest activating concentration", "result": "16 nM"}
{"SMILES": "Cc1cn([C@H]2C[C@H](O)[C@@H](CO)O2)c(=O)[nH]c1=O", "target or system": "deoxyribonucleoside phosphotransferase I (Trichomonas vaginalis)", "test": "substrate", "setting": "with: p-nitrophenylphosphate 100 mM", "measurement": "Km", "result": "3570 ± 420 µM"}
